Experimental data gathered from unrelated publications.
Values joined by “and” are separate records of one study, mostly repeats; a detail may differ.

| SMILES | tested on | assay | test system | conditions | how to read | endpoint | value |
| --- | --- | --- | --- | --- | --- | --- | --- |
| C[C@H](Oc1ccc(Br)cc1-c1ccon1)C(=O)O | – | response peak | human, tibialis anterior muscle | 100 mg, 30 Hz+30 s | – | difference from placebo | 7.75% |
| c1ccc(-c2n[nH]cc2-c2ccnc3ccccc23)nc1 | orf19.4144 kinase Candida albicans | MIB/MS competition binding | Candida albicans cell lysate | 10 µM | baseline: DMSO, lower = stronger binding | log2 fold change | 1.52 |
| Cn1cc(Nc2nccc(-c3ccc4c(c3)CN(C3COC3)CC[C@H]4NC(=O)c3cn(C(C)(C)C)nn3)n2)cn1 | mouse splenic B cells | item: UVA-Induced MAPK signalling | – | 30 mg/kg, IgD-activated in vivo | baseline: vehicle, direction not given | pathway activation z-score | 3 |
| CC(C)NCC(O)c1ccc(O)c(O)c1 (stereo not drawn) | – | – | ventricular cardiomyocytes, C57BL/6 mouse | dose not given, 0.252 s | – | sarcomere length | 1.61 µm |
| Cn1cc(-c2ccc(-c3cncc(Cl)c3N3CCC4(CCNC4=O)CC3)cc2)cn1 | COLO 205 | gene expression, microarray, item: IL32 mRNA | – | concentration not given, 6 h | baseline: untreated cells | log2 fold change | 2.34 |
| CCn1cc(-c2cc(Cn3ccoc3=N)cc3c2CCN([C@@H](C)c2cc(OC)ccn2)C3=O)c(C(F)(F)F)n1 | HCC70 | cell growth, inhibitor | – | 120 h | – | EC50 | > 30000 nM |
| Oc1ccccc1-c1n[nH]cc1-c1ccnc2ccccc12 | RIM15 (Candida albicans) | kinase binding, MIB/MS competition | Candida albicans lysate | 1 µM | baseline: DMSO | log2 fold change | -0.31 |
| CC(=O)NC[C@H]1CN(c2ccc(N3CCOCC3)c(F)c2)C(=O)O1 | Staphylococcus | – | MRSE-8, mouse systemic infection | intravenous | survival | ED50 | 7.99 mg/kg |
| NC(=O)c1cnc2[nH]ccc2c1N[C@@H]1[C@@H]2CC3C[C@H]1C[C@@](O)(C3)C2 | – | regulatory T cells, flow cytometry | Japanese humans, peripheral blood | 20 mg single dose | baseline: baseline | percent change | 0.57% |
| COc1cnc2cccc(N3CCc4c(cc(Cn5ccnc5C)cc4-c4cn(C)nc4C(F)(F)F)C3=O)c2c1 | SW837 | cell growth, inhibitor | – | 120 h | – | EC50 | 75.6 nM |
| COc1cc(C(=O)NS(=O)(=O)c2ccccc2C)ccc1Cc1cn(C)c2ccc(NC(=O)OC3CCCC3)cc12 | native VRAC | ion current, inhibitor, whole-cell patch clamp | wild-type HCT cells | 30 µM, pH 6.0, extracellular pH | – | inhibition | 90.5% and 94.3% and 94% and 83.3% and 92.4% |
| N#Cc1ccc2c(-c3ccncc3)c(-c3ccc(F)cc3)nn2c1 | orf19.4518 kinase Candida albicans | MIB/MS competition binding | Candida albicans cell lysate | 1 µM | baseline: DMSO, lower = stronger binding | log2 fold change | -0.168 |
| O=C(O)CNC(=O)Cc1ccccc1 | – | – | ventricular cardiomyocytes, C57BL/6 mouse | dose not given, 0.396 s | – | sarcomere length | 1.72 µm |
| Cc1n[nH]c2ccc(-c3cc(OC[C@@H](N)Cc4ccccc4)cnc3-c3ccoc3)cc12 | orf19.4144 kinase Candida albicans | MIB/MS competition binding | Candida albicans cell lysate | 10 µM | baseline: DMSO, lower = stronger binding | log2 fold change | -2.63 |
| C=C[C@]1(C)C[C@@H](OC(=O)CSCCN(CC)CC)[C@]2(C)[C@H](C)CC[C@]3(CCC(=O)[C@H]32)[C@@H](C)[C@@H]1O | Mycoplasmoides gallisepticum | – | chicken, infected | intramuscular, 40 mg/kg | direction not given | air sac lesion score | 3 and 2 and 1 |

Repeated from above:
| SMILES | tested on | assay | test system | conditions | how to read | endpoint | value |
| --- | --- | --- | --- | --- | --- | --- | --- |
| O=C(O)CNC(=O)Cc1ccccc1 | – | – | ventricular cardiomyocytes, C57BL/6 mouse | dose not given, 0.396 s | – | sarcomere length | 1.72 µm |
| Cc1n[nH]c2ccc(-c3cc(OC[C@@H](N)Cc4ccccc4)cnc3-c3ccoc3)cc12 | orf19.4144 kinase Candida albicans | MIB/MS competition binding | Candida albicans cell lysate | 10 µM | baseline: DMSO, lower = stronger binding | log2 fold change | -2.63 |
